Measured values from different studies.
A part holds a random share of what one study measured. Values joined by “and” are separate records of one study, mostly repeats; a detail may differ.
Chain of UniProt P21918 (whole entry, looked up): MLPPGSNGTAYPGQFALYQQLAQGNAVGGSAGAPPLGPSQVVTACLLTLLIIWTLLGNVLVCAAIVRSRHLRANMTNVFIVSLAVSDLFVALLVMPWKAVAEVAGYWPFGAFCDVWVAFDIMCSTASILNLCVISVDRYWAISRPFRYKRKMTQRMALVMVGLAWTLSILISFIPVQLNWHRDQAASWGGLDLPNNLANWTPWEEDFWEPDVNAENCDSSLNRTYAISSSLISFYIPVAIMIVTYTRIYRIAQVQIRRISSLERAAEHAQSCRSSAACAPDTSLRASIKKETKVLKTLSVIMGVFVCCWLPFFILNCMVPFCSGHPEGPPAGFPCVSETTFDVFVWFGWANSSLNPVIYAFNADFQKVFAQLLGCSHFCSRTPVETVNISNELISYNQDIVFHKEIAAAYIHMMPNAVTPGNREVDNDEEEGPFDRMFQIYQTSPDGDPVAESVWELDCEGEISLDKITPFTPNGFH
Chain of UniProt P28223 (whole entry, looked up): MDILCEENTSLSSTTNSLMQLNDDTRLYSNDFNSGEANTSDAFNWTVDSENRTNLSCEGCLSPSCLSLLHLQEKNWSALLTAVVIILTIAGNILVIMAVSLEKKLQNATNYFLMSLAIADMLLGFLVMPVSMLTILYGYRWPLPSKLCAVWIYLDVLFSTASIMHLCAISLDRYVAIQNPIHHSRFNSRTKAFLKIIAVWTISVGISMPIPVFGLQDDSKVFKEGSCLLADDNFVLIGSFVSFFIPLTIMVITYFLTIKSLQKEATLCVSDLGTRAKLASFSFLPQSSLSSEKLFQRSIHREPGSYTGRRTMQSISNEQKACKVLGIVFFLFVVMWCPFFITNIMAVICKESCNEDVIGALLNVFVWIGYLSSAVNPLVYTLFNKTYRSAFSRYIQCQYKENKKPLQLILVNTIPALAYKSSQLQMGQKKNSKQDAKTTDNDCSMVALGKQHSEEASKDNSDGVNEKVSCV
Chain of UniProt P41143 (whole entry, looked up): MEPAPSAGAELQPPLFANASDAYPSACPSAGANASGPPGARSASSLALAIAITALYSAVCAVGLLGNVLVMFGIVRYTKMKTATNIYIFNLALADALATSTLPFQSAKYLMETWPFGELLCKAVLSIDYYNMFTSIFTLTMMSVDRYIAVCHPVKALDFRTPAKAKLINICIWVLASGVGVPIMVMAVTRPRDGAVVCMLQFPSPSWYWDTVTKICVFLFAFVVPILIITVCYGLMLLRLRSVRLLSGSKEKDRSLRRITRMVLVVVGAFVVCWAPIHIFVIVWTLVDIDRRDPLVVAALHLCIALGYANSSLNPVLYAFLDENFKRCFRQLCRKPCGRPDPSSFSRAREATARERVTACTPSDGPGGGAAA
Chain of UniProt P41145 (whole entry, looked up): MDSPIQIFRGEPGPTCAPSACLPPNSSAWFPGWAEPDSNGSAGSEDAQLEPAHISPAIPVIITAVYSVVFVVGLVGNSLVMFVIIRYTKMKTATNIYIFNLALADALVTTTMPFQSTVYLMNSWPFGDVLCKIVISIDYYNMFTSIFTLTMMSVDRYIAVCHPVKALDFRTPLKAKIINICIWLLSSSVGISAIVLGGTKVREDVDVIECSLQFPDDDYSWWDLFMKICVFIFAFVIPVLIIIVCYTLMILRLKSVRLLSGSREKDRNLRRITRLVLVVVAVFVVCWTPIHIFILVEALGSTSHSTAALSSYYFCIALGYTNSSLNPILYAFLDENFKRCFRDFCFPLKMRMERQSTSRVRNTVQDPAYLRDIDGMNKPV
Chain of UniProt P35372 (whole entry, looked up): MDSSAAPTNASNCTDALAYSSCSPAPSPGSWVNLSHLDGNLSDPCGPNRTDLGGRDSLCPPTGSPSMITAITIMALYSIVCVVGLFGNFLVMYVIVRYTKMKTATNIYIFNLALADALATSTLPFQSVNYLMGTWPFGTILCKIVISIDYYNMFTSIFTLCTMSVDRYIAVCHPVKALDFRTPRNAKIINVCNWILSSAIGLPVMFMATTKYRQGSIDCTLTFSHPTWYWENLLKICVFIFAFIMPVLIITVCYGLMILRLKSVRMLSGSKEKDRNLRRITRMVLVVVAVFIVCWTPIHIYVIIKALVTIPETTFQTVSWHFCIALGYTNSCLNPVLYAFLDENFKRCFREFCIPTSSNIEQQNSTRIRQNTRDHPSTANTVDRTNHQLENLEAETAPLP
Chain of UniProt P20309 (whole entry, looked up): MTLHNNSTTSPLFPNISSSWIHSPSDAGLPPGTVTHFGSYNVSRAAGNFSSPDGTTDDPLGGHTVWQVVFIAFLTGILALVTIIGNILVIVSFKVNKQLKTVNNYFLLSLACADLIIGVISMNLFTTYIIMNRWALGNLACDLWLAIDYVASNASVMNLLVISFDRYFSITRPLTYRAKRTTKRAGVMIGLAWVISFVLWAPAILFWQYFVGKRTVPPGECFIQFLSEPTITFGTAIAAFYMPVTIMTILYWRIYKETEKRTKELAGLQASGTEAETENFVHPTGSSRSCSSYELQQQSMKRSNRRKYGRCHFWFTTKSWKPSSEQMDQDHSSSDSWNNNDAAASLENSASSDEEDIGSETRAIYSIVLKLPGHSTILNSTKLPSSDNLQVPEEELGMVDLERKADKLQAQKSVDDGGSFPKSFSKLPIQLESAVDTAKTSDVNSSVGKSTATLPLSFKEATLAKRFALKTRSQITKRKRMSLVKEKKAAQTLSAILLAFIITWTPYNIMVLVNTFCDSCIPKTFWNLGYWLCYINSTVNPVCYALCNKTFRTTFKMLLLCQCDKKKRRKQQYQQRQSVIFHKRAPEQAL
Chain of UniProt P11229 (whole entry, looked up): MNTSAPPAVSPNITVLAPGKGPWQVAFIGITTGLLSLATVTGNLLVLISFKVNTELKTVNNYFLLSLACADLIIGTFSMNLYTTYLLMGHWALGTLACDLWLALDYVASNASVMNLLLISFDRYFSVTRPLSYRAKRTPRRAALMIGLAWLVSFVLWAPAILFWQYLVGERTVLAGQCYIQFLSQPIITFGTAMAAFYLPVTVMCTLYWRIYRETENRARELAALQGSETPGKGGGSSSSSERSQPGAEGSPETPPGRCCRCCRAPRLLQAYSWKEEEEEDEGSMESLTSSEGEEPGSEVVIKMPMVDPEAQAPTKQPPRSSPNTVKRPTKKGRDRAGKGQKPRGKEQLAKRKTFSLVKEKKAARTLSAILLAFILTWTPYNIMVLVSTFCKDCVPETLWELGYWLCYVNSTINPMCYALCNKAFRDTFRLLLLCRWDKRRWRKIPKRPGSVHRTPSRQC

Block 1
SMILES: CN(c1ccnc(CNc2nc(Nc3ccc4c(c3)CC(=O)N4)ncc2C(F)(F)F)n1)S(C)(=O)=O
Effect on: cell-free assay
Concentration: 10 µM
target | inhibition [%]
OPRK1 (Homo sapiens, UniProt P41145) | -31.1
HTR2A (Homo sapiens, UniProt P28223) | 4.75
CHRM3 (Homo sapiens, UniProt P20309) | -4.64
OPRM1 (Homo sapiens, UniProt P35372) | 0.77
CHRM1 (Homo sapiens, UniProt P11229) | -6.58
DRD5 (Homo sapiens, UniProt P21918) | -0.97
OPRD1 (Homo sapiens, UniProt P41143) | -6.88

Block 2
Organism: Sarcocystis neurona
Effect on: parasite activity
Concentration: 10 µM
Time: 96 h
Structure (SMILES) | activity class
C[N+]1(C)CCN(c2ccccc2)CC1 | inactive
NC(=O)OCCCc1ccccc1 | inactive
O=C1Nc2ccc(Cl)cc2C(c2ccccc2Cl)=NC1O (centres unmarked) | inactive

Other studies, line by line
SMILES | cell line | test | setting | how to read | quantity | result
CCN(CC)C(C)C(=O)c1ccccc1 (centres unmarked) | mouse MPNST tumor cells | high-content immunofluorescence imaging, refers to: nuclear SOX9 | 10 µM, 12 h, mean of 2 replicates | relative to: DMSO control, higher = more nuclear SOX9 | nuclear SOX9 intensity | 97.7 % of DMSO
CC(C)S(=O)(=O)c1cc2c(Nc3ccc4sc(C5CCCC5)nc4c3)ccnc2cc1OCCO | L929 RIPK3-/- reexpressing RIPK3 K51A/R69H | CCK-8 | 1.563 µM |  | survival | 96.8% and 93.4% and 99.6% and 95.9%
CCC1(c2ccc(N)cc2)CCC(=O)NC1=O (centres unmarked) | mouse MPNST tumor cells | high-content immunofluorescence imaging, refers to: nuclear SOX9 | 10 µM, 12 h, mean of 2 replicates | relative to: DMSO control, higher = more nuclear SOX9 | nuclear SOX9 intensity | 95.1 % of DMSO
CCc1cccc(CC)c1NC1=NCCN1 | mouse MPNST tumor cells | high-content immunofluorescence imaging, refers to: nuclear SOX9 | 10 µM, 12 h, mean of 2 replicates | relative to: DMSO control, higher = more nuclear SOX9 | nuclear SOX9 intensity | 97.8 % of DMSO

Repeated from above (block 1):
target | inhibition [%]
CHRM3 (Homo sapiens, UniProt P20309) | -4.64
HTR2A (Homo sapiens, UniProt P28223) | 4.75
